Measurements pooled from the literature.
Parts stem from different laboratories: compare values within a part only. Values joined by “and” are separate records of one study, mostly repeats; a detail may differ.
Sequence of UniProt P30530 (whole entry, looked up): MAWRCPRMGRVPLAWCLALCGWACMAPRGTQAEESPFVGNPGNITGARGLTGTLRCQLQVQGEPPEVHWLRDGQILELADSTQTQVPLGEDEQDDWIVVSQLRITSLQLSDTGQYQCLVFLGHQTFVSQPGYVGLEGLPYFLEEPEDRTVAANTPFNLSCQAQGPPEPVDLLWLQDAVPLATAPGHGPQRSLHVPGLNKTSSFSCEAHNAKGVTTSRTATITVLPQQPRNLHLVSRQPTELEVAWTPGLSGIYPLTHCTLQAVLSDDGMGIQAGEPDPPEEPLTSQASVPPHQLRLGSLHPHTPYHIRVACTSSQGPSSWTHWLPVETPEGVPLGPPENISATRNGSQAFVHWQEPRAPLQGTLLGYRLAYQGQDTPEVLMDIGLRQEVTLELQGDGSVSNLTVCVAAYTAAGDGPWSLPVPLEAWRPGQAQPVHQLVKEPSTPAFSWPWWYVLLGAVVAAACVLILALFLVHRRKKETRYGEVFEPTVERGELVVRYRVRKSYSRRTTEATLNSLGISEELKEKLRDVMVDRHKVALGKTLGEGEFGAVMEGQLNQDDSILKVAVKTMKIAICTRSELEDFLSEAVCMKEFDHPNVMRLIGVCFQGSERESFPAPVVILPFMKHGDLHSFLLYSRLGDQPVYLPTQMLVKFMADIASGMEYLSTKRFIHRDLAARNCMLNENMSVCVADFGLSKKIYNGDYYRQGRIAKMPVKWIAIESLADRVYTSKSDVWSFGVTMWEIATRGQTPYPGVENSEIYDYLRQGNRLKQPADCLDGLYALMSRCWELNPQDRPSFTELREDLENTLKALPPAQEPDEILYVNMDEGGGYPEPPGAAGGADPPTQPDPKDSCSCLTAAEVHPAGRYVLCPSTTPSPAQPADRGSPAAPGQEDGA
Sequence of UniProt O75582 (whole entry, looked up): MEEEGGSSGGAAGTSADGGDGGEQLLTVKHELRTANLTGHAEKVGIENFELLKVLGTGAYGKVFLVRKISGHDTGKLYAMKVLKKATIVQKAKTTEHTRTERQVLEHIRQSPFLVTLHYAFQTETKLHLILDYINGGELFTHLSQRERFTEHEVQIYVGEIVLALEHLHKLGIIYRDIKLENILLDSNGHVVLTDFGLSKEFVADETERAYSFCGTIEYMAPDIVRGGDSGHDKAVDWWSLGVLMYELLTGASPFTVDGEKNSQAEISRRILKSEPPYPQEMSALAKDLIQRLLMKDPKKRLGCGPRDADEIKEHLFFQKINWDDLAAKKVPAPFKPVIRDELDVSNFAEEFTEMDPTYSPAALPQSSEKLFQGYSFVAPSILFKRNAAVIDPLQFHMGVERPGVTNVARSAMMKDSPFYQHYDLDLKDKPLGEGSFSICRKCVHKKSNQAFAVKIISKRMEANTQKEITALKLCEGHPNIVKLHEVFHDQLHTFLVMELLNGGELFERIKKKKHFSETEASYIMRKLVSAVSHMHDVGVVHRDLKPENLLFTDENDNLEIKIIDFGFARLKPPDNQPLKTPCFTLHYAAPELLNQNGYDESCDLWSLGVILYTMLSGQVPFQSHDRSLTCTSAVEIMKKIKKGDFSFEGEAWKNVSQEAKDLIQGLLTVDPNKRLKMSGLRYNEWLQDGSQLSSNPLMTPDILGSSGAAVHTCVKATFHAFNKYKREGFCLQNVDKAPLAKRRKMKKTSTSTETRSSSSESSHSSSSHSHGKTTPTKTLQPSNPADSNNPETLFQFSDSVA
Sequence of UniProt P11802 (whole entry, looked up): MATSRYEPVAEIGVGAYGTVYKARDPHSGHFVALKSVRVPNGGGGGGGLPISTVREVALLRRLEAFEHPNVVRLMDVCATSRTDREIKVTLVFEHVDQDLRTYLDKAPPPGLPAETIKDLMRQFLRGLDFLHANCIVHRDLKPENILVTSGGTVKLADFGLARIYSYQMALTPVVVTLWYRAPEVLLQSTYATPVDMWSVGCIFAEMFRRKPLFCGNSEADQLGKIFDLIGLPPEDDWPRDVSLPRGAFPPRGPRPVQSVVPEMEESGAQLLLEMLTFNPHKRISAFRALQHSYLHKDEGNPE
Sequence of UniProt P54762 (whole entry, looked up): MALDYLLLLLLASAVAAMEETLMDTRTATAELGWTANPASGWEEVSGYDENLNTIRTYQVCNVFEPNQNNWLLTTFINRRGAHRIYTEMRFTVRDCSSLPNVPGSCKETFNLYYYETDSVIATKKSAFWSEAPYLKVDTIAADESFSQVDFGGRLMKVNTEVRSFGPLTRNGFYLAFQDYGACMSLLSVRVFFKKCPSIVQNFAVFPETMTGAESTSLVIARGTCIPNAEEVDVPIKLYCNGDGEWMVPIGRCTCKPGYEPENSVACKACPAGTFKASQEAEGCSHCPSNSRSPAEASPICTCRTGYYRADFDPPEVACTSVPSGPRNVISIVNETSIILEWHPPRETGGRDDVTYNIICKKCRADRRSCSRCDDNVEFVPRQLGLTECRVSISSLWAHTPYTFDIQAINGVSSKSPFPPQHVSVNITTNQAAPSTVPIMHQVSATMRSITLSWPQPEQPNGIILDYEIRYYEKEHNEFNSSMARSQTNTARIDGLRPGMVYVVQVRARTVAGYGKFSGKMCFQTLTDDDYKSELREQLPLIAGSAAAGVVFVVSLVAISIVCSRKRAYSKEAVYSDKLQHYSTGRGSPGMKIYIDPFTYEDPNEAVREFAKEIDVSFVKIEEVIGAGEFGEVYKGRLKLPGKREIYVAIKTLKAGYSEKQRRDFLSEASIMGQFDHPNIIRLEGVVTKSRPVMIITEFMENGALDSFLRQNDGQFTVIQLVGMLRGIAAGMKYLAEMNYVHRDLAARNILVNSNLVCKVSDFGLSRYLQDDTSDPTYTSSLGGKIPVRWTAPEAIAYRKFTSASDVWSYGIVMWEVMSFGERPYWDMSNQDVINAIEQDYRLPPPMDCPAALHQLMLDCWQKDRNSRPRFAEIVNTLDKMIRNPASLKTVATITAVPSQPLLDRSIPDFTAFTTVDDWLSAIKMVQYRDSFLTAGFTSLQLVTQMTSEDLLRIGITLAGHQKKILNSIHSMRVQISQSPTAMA

Set 1
Target: HLA class I histocompatibility antigen, C alpha chain, allele C*04:01 (Homo sapiens, UniProt P10321)
Read-out: peptide-MHC binding
Molecule type: peptide
Tested at: concentration not given
| Molecule | binding |
| --- | --- |
| RRFNRTKPM | inactive |
| FPRYPLNVL | inactive |
| RVRWRNYAL | inactive |
| RPMTYKAAL | inactive |
| YSRMLYIEF | inactive |
| WPTPKTHPV | inactive |
| TTYVYTLPV | inactive |
| FLLENAAYL | inactive |

Set 2
Target: Muscarinic acetylcholine receptor M1 (CHRM1, Homo sapiens, UniProt P11229)
Sequence of UniProt P11229 (whole entry, looked up): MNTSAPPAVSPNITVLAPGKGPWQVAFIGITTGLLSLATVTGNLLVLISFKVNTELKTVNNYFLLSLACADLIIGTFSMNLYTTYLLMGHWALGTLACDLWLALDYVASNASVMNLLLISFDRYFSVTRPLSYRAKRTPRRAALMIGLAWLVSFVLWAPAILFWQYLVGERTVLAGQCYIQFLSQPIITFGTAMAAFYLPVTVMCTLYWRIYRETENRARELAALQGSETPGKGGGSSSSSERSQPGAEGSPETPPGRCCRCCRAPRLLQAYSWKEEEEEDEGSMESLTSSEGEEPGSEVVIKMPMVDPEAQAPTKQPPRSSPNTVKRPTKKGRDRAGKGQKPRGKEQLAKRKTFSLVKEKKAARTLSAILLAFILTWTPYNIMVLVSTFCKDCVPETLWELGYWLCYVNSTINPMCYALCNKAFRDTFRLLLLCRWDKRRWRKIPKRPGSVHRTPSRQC
Read-out: ligand displacement
Tested at: 10 µM
| Compound | inhibition [%] |
| --- | --- |
| CC1=C(C#N)C(c2ccc3[nH]nc(C)c3c2)C(C#N)=C(C)N1 | 13.9 |
| O=C(Nc1ccc(Oc2ccc(F)cc2)cc1)N1CCc2ncccc2[C@H]1c1ccc(F)cc1 | -2.98 |
| O=C1NC(c2ccccn2)Sc2ccccc21 (stereo not shown) | -11.6 |
| Cc1ccccc1Oc1cc(-n2c(=O)cc(C(F)(F)F)[nH]c2=O)c2ccccc2c1Cl | 17.8 |

Set 3
SMILES: CC[C@@H](C)c1nc2cc(Nc3ccnc4ccc(S(=O)(=O)C(C)C)cc34)ccc2s1.Cl
| cell line | assay | setting | viability |
| --- | --- | --- | --- |
| L929 | CCK-8 | 100 µM | 48.7% and 37.7% and 35.9% and 48.3% and 37.6% |
| L929 | CCK-8 | 12.5 µM | 112% and 111% and 108% and 113% |
| L929 | CCK-8 | 0.781 µM | 103% and 101% and 100% and 98.4% |
| HT-29 | necroptosis protection, CCK-8 | 1.25 µM, added: TNF-α SMAC mimetic zVAD | 34% and 58.8% and 32.2% and 35.1% and 32.9% |
| L929 RIPK3 knockout |  | 3.125 µM, added: zVAD | 95.8% and 108% and 96.9% and 95.5% |
| L929 | CCK-8 | 0.781 µM, added: zVAD | 98.5% and 93.3% and 99.7% and 100% |
| L929 RIPK3 knockout |  | 100 µM, added: zVAD | 43.6% and 44.6% and 34.6% and 45.5% |
| L929 | CCK-8 | 12.5 µM, added: zVAD | 111% and 116% and 110% |
| L929 RIPK3 knockout |  | 1.563 µM, added: zVAD | 99.1% and 108% and 105% and 104% |
| L929 | CCK-8 | 25 µM | 98.9% and 84.8% and 82.2% and 82.4% and 85.2% |
| HT-29 | necroptosis protection, CCK-8 | 20 µM, added: TNF-α SMAC mimetic zVAD | 97.7% and 83.6% and 86.4% and 98.5% |
| HT-29 | necroptosis protection, CCK-8 | 5 µM, added: TNF-α SMAC mimetic zVAD | 104% and 97.6% and 82.2% and 93.5% and 88% |
| L929 RIPK3 knockout |  | 3.125 µM | 96.2% and 97.1% and 98.4% and 102% and 105% |
| L929 RIPK3 knockout |  | 50 µM | 46.9% and 39.1% and 38% and 39.6% and 36.5% |
| L929 RIPK3 knockout |  | 12.5 µM, added: zVAD | 108% and 107% and 104% and 94.8% |
| L929 | CCK-8 | 3.125 µM | 106% and 103% and 104% and 100% |
| HT-29 | necroptosis protection, CCK-8 | 0.078 µM, added: TNF-α SMAC mimetic zVAD | 20.1% and 12.7% and 13% |

Set 4
SMILES: COc1ccc2c(c[n+](C)c3c4cc5c(cc4ccc23)OCO5)c1OC
Read-out: enzyme activity
Action: inhibitor
Tested at: 0.5 µM
Relative to: control
| target | remaining activity [%] |
| --- | --- |
| RPS6KA5 (Homo sapiens, UniProt O75582) | 83.3 |
| Cyclin-dependent kinase 4, with cyclin D3 (CDK4, Homo sapiens, UniProt P11802) | 98.8 |
| AXL (Homo sapiens, UniProt P30530) | 98 |
| EPHB1 (Homo sapiens, UniProt P54762) | 90.4 |

Other studies, line by line
| Structure (SMILES) | test system | setting | quantity | result |
| --- | --- | --- | --- | --- |
| CC(=O)Oc1ccc(/C=C/c2cc(OC(C)=O)cc(OC(C)=O)c2)cc1 | human, microsomes or S9 | 2 µM, 0.5 h | remaining compound | 3.81% |

Excerpt of the above (set 4):
| target | remaining activity [%] |
| --- | --- |
| AXL (Homo sapiens, UniProt P30530) | 98 |
| Cyclin-dependent kinase 4, with cyclin D3 (CDK4, Homo sapiens, UniProt P11802) | 98.8 |
| RPS6KA5 (Homo sapiens, UniProt O75582) | 83.3 |
| EPHB1 (Homo sapiens, UniProt P54762) | 90.4 |
